Measured values gathered from unrelated publications.
Compare with care: the assays were run in different laboratories. Values joined by “and” are separate records of one study, mostly repeats; a detail may differ. ± marks the error that the study gave. ≈ marks a conversion by molar mass, not a printed value.

SMILES	cell line	test	test system	conditions	scale	measurement	value
CN[C@@H]1C[C@H]2O[C@@](C)([C@@H]1OC)n1c3ccccc3c3c4c(c5c6ccccc6n2c5c31)C(=O)NC4	Caco-2	qRT-PCR, refers to: Bcl-2	–	IC50	baseline: untreated	mRNA fold change	0.321
O=C1CCP(=S)(c2ccccc2)CC1	HCT-116	annexin V/PI flow cytometry	–	IC50, 72 h	–	necrotic cells	1.45%
Cc1sc2c(c1C)C(c1ccc(Cl)cc1)=N[C@@H](CC(=O)Nc1ccc(O)cc1)c1nnc(C)n1-2	murine AML cells	BRD4 chromatin occupancy, ChIP-seq, refers to: Irf2bp2 locus	–	concentration not given	baseline: DMSO	log2 fold change	-2.45
Nc1ncnc2c1ncn2[C@@H]1O[C@@H]2COP(=O)(O)O[C@H]3[C@@H](O)[C@H](n4cnc5c(=O)[nH]cnc54)O[C@@H]3COP(=O)(O)O[C@H]2[C@H]1O	HFF-1	RNA sequencing Reactome analysis, refers to: Reactome R-HSA-1236974 ER-phagosome pathway	–	added: West Nile virus infection	baseline: West Nile virus infected cells, upregulated pathway	pathway fold enrichment	4.77
O=C(Nc1ccc2[nH]nc(-c3ccncc3)c2c1)[C@@H]1CCN(CC(=O)N2CCN(c3ccc(-c4ncccn4)cc3)CC2)C1	HCT116	IncuCyte	–	concentration not given, 8 (unit not given)	–	PI-positive cells	2.17 count and 3.92 count and 2.92 count
CN1CCN(C2(CNC3CCN(c4cccc(-c5cc6cc(F)ccc6[nH]5)c4)CC3)CCC2)CC1	SK-MEL-5	–	–	–	–	GI50	1710 nM
CC[C@H](C)[C@H](NC(=O)CNC(=O)[C@@H](N)CCCCN)C(=O)N[C@@H](CC(C)C)C(=O)N[C@@H](CCCCN)C(=O)N[C@@H](CCCNC(=N)N)C(=O)N[C@@H](CCC(=O)O)C(=O)N[C@@H](CCCCN)C(=O)N[C@@H](CCCNC(=N)N)C(=O)N[C@@H](CC(C)C)C(=O)N[C@@H](CCCNC(=N)N)C(=O)N[C@@H](CCCNC(=N)N)C(=O)N[C@@H](CCCCN)C(=O)N[C@@H](CC(N)=O)C(=O)N[C@H](C(=O)N[C@@H](Cc1c[nH]cn1)C(=O)N[C@@H](Cc1c[nH]c2ccccc12)C(=O)N1CCC[C@H]1C(=O)N[C@@H](CCC(=O)O)C(=O)N[C@@H](CCC(=O)O)C(=O)NCC(=O)N[C@@H](CCCCN)C(=O)N[C@@H](CC(C)C)C(=O)N[C@@H](CCCNC(=N)N)C(=O)N[C@@H](CCC(=O)O)C(=O)N[C@@H](Cc1ccccc1)C(=O)N[C@@H](Cc1ccccc1)C(=O)N[C@@H](Cc1ccccc1)C(=O)N[C@@H](Cc1ccccc1)C(=O)N[C@@H](CCC(=O)O)C(=O)N[C@@H](CC(C)C)C(=O)N[C@@H](CC(=O)O)C(=O)N[C@@H](CCC(=O)O)C(=O)N[C@@H](C)C(=O)N[C@@H](CCC(=O)O)C(=O)N[C@@H](CCCNC(=N)N)C(=O)N[C@H](C(=O)N[C@@H](CC(N)=O)C(=O)N[C@H](C(=O)O)C(C)C)C(C)C)C(C)C	HeLa (mitotic)	protein phosphorylation, TMT phosphoproteomics, refers to: histone H3.2 Ser29	cell lysate	concentration not given, 15 min	baseline: treated over control	log2 fold change	2.66
N[C@@H]1C[C@H]1c1ccccc1	OCI-Ly1	–	–	0.1 µM, 120 h	–	viability	187%
COc1ccc(N(C)c2nc(C)nc3ccccc23)cc1	HCI-10-Luc2	chemotaxis	–	added: human HGF 50 nM	–	lowest effective concentration	0.5 nM
C/C=C(/C)C(=O)O[C@H]1C(C)=C2[C@H]([C@@H]1OC(=O)CCCCCCC)[C@@](C)(OC(C)=O)C[C@H](OC(=O)CCC)[C@@]1(O)[C@H]2OC(=O)[C@@]1(C)O	HEK293T	RNA-seq, refers to: ATF3 mRNA	–	10 µM, 6 h	baseline: vehicle	log2 fold change	2.71
Nc1nc2nc[nH]c2c(=S)[nH]1	HCT-116 3-6	clonogenic	–	1.25 µM, 10 days	–	surviving fraction	0.53
c1ccc([C@@H]2C[C@H]2NC2CCNCC2)cc1	OCI-Ly1	–	–	0.5 µM, 120 h	–	viability	166%
Cc1cnc2ccc3c(nc(N)n3C)c2n1	BALB/c 3T3	colony forming efficiency	–	100 µM	–	colony number	96 colonies per plate and 82 colonies per plate and 89 colonies per plate
COc1c(C)c2c(c(O)c1C/C=C(\C)CCC(=O)O)C(=O)OC2	A673	cell proliferation	muscle cancer	–	–	IC50	589 nM
COc1cccc2c1C(=O)c1c(O)c3c(c(O)c1C2=O)C[C@@](O)(C(=O)CO)C[C@@H]3O[C@H]1C[C@H](N)[C@H](O)[C@H](C)O1	HL-60	sulforhodamine B	–	10 µg/mL, 48 h	negative means cell kill	growth percent	-9.3%
C=CC(=O)N[C@H]1C=C(C)c2c(-c3cnc4ccccc4c3)c3c(N)ncnc3n2C1	NCI-H2073 EGFR SVD knock-in	cell proliferation, CellTiter-Glo	–	–	baseline: knock-in over parental NCI-H2073	selectivity ratio	3
Nc1ncc(-c2nc(N3CCOCC3)nc(N3CCOCC3)n2)c(C(F)F)n1	A-375	–	–	72 h	–	GI50	269 nM
COc1cc(C[C@H]2COC(=O)[C@@H]2Cc2ccc(O)c(OC)c2)ccc1O	neuroblastoma M2 (+)	western blot	–	IC50	baseline: untreated	PCNA level	decreased
Oc1ccc(C(c2ccc(O)cc2)(C(F)(F)F)C(F)(F)F)cc1	HepG2 spheroids	planimetry	–	5 µM, 0 to 24 h	baseline: mean area of 72 h spheroids	spheroid area increase	126%
Cn1cncc1C1=CN(c2ncnc3[nH]cnc23)CCS1	HOP-92	–	–	lung cancer	–	CC50	> 200000 nM
Cc1cc(C(C)(C)c2ccc(O)c(C)c2)ccc1O	HepG2 spheroids	Hoechst flow cytometry	–	1 µM, 24 h	–	G1 phase cells	75 ± 3.24%
COc1c(CCC[P+](c2ccccc2)(c2ccccc2)c2ccccc2)cc2c(c1OC)OCO2.[I-]	M14	SRB	–	–	–	TGI	-4.72 log M
CC(c1ccccc1)(c1ccc(O)cc1)c1ccc(O)cc1	HepG2 spheroids	Hoechst flow cytometry	–	40 µM, 24 h	–	G2 phase cells	19.3 ± 4.07%
C[C@]12CC[C@H](O)C[C@H]1CC[C@@H]1[C@@H]2CC[C@]2(C)[C@@H](c3ccc(=O)oc3)CC[C@]12O	MCF7	RT-qPCR, refers to: NRIP1	–	20 nM, 48 h, without estradiol, unit not given	baseline: untreated	mRNA level	0.598 and 0.594 and 0.596
COc1cc(CCC[P+](c2ccccc2)(c2ccccc2)c2ccccc2)c(OC)c2c1OCO2.[I-]	SN12C	SRB	–	–	–	TGI	-4.98 log M
CCN(CC)c1ccc(C=NNC(=O)CSc2nc3ccccc3c(=O)n2Cc2ccc(S(N)(=O)=O)cc2)c(O)c1	EKVX	NCI five-dose screen	–	–	–	CC50	> 100000 nM
COc1ccc([C@H]2c3[nH]c4ccc(Cl)cc4c3CCN2C(=O)Oc2ccc(Cl)cc2)cc1	human dermal fibroblasts with PBMC	cytokine secretion, refers to: sIL-10	–	0.01 µM, 48 h	–	inhibition	73%
CC(C)N1CCC(NC2CCN(c3cccc(-c4cc5cc(F)ccc5[nH]4)c3)CC2)CC1	SN12C	–	–	–	–	CC50	7010 nM
CC(C)(O/N=C(\C(=O)N[C@@H]1C(=O)N2C(C(=O)[O-])=C(C[n+]3ccccc3)CS[C@H]12)c1csc(N)n1)C(=O)O	Escherichia coli DH5α expressing KPC-2	bacterial growth	–	–	–	MIC	16 µg/mL (≈ 29.3 µM)

A few entries again:
SMILES	cell line	test	test system	conditions	scale	measurement	value
O=C1CCP(=S)(c2ccccc2)CC1	HCT-116	annexin V/PI flow cytometry	–	IC50, 72 h	–	necrotic cells	1.45%
CC[C@H](C)[C@H](NC(=O)CNC(=O)[C@@H](N)CCCCN)C(=O)N[C@@H](CC(C)C)C(=O)N[C@@H](CCCCN)C(=O)N[C@@H](CCCNC(=N)N)C(=O)N[C@@H](CCC(=O)O)C(=O)N[C@@H](CCCCN)C(=O)N[C@@H](CCCNC(=N)N)C(=O)N[C@@H](CC(C)C)C(=O)N[C@@H](CCCNC(=N)N)C(=O)N[C@@H](CCCNC(=N)N)C(=O)N[C@@H](CCCCN)C(=O)N[C@@H](CC(N)=O)C(=O)N[C@H](C(=O)N[C@@H](Cc1c[nH]cn1)C(=O)N[C@@H](Cc1c[nH]c2ccccc12)C(=O)N1CCC[C@H]1C(=O)N[C@@H](CCC(=O)O)C(=O)N[C@@H](CCC(=O)O)C(=O)NCC(=O)N[C@@H](CCCCN)C(=O)N[C@@H](CC(C)C)C(=O)N[C@@H](CCCNC(=N)N)C(=O)N[C@@H](CCC(=O)O)C(=O)N[C@@H](Cc1ccccc1)C(=O)N[C@@H](Cc1ccccc1)C(=O)N[C@@H](Cc1ccccc1)C(=O)N[C@@H](Cc1ccccc1)C(=O)N[C@@H](CCC(=O)O)C(=O)N[C@@H](CC(C)C)C(=O)N[C@@H](CC(=O)O)C(=O)N[C@@H](CCC(=O)O)C(=O)N[C@@H](C)C(=O)N[C@@H](CCC(=O)O)C(=O)N[C@@H](CCCNC(=N)N)C(=O)N[C@H](C(=O)N[C@@H](CC(N)=O)C(=O)N[C@H](C(=O)O)C(C)C)C(C)C)C(C)C	HeLa (mitotic)	protein phosphorylation, TMT phosphoproteomics, refers to: histone H3.2 Ser29	cell lysate	concentration not given, 15 min	baseline: treated over control	log2 fold change	2.66
Oc1ccc(C(c2ccc(O)cc2)(C(F)(F)F)C(F)(F)F)cc1	HepG2 spheroids	planimetry	–	5 µM, 0 to 24 h	baseline: mean area of 72 h spheroids	spheroid area increase	126%
N[C@@H]1C[C@H]1c1ccccc1	OCI-Ly1	–	–	0.1 µM, 120 h	–	viability	187%
